Experimental data from different studies.
Numbered parts are unrelated; each lists some results of a single study. “And” joins repeats or separate records; there may be more than shown.
Chain of UniProt P11802 (whole entry, looked up): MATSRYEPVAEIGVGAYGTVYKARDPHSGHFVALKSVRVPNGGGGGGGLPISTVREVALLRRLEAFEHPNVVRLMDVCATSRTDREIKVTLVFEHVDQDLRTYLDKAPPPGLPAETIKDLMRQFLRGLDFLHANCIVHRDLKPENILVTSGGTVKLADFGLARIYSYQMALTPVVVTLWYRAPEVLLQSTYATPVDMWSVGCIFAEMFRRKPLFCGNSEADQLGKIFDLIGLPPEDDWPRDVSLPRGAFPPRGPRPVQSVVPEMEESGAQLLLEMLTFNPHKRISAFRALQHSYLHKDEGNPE
Chain of UniProt P07948 (whole entry, looked up): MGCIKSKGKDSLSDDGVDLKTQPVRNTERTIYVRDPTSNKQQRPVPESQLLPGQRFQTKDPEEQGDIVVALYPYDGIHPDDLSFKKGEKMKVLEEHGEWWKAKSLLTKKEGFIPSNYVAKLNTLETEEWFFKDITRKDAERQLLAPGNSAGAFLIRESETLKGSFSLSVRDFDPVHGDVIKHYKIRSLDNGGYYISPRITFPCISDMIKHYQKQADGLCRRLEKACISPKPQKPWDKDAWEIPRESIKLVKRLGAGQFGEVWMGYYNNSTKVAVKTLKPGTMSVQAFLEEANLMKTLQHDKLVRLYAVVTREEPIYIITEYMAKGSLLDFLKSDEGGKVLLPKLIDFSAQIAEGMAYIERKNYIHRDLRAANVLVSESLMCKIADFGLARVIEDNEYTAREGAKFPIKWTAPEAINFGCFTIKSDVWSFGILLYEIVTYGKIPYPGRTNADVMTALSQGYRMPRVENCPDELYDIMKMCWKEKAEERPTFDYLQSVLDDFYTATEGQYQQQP
Chain of UniProt P45984 (whole entry, looked up): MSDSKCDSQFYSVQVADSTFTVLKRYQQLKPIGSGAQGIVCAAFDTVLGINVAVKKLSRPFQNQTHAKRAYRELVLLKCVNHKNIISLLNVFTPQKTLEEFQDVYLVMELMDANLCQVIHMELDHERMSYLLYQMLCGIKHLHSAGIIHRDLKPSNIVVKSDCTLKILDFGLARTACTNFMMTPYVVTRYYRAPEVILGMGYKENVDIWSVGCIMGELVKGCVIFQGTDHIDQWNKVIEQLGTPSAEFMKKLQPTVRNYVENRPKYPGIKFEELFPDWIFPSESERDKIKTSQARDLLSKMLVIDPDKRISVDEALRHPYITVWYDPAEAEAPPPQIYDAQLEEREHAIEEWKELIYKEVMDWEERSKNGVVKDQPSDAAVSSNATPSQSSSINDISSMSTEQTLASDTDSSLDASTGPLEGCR
Chain of UniProt Q08345 (whole entry, looked up): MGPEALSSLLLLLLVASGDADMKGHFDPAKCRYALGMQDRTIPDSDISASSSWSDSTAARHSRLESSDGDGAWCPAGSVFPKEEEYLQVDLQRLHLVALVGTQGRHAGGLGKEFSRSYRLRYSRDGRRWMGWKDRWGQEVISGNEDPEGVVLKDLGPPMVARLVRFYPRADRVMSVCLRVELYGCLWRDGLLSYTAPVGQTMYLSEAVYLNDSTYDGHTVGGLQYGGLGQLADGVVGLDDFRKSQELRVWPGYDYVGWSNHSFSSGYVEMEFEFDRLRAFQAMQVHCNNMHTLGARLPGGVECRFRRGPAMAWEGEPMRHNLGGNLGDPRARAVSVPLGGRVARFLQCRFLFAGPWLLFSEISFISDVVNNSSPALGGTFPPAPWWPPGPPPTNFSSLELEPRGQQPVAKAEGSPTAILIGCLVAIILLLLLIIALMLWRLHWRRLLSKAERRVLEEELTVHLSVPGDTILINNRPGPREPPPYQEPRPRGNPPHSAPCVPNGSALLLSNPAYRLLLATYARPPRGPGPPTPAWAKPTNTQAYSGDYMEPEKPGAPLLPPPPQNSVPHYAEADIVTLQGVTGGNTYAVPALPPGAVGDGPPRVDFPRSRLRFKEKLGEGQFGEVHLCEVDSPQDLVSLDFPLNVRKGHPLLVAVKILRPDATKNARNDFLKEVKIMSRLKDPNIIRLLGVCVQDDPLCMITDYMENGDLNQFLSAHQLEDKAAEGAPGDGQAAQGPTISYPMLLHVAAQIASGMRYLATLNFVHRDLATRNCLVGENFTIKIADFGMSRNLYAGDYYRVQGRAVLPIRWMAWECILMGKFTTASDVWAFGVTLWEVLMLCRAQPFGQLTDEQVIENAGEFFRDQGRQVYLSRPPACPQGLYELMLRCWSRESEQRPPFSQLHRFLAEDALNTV
Chain of UniProt Q9UIK4 (whole entry, looked up): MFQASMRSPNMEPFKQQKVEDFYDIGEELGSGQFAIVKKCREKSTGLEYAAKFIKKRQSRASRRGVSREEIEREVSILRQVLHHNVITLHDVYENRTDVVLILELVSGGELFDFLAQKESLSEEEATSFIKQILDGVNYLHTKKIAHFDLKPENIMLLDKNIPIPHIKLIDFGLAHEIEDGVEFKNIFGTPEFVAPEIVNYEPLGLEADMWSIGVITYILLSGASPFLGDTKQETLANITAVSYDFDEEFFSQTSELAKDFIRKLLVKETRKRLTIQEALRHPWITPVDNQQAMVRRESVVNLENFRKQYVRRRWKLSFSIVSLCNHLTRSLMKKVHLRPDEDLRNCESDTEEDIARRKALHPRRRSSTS
Chain of UniProt P49759 (whole entry, looked up): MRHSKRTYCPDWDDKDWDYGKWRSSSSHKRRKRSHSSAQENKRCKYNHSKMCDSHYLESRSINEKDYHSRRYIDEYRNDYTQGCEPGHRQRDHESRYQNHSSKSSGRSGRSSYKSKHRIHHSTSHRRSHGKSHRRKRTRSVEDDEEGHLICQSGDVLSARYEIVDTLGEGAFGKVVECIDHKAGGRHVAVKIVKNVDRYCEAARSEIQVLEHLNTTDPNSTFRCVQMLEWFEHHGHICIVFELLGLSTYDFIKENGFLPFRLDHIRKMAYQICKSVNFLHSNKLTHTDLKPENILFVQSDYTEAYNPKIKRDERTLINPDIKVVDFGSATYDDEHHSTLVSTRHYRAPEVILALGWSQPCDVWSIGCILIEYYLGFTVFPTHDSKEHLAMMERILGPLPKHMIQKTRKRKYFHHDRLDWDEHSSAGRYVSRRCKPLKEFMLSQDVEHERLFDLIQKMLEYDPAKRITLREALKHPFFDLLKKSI
Chain of UniProt P37173 (whole entry, looked up): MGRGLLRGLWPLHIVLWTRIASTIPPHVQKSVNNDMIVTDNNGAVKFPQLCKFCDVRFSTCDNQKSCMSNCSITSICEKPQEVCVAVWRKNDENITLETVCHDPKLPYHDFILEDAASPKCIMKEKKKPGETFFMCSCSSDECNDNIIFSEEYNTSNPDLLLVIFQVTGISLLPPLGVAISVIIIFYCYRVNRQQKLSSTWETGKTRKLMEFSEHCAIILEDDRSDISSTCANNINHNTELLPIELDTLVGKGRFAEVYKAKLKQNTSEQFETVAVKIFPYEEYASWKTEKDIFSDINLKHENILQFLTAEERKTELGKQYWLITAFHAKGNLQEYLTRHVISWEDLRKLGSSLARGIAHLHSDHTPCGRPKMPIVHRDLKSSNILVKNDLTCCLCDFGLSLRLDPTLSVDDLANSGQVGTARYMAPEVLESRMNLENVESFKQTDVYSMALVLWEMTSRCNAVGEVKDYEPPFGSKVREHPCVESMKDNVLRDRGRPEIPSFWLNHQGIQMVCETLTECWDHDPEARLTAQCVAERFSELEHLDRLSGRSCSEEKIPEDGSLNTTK
Chain of UniProt P36897 (whole entry, looked up): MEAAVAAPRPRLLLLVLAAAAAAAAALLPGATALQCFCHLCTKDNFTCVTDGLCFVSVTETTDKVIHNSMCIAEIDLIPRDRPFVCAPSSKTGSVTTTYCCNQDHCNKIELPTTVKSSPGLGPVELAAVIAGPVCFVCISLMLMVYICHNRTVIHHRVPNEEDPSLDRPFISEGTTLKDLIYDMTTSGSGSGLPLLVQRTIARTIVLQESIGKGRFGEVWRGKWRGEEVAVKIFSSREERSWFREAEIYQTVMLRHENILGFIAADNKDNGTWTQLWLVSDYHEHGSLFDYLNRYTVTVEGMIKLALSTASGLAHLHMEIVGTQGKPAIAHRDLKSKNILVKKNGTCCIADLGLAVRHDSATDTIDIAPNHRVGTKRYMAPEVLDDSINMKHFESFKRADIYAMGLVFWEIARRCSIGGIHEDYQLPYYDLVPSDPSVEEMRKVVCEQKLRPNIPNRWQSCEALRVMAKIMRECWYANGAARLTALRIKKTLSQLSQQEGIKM

Set 1 — cell line: HuT78; tested at: 2 µM; time: 48 h; reference: untreated
For `N#Cc1c(NC(=O)c2cccc3ccccc23)sc2c1CCCC2`, the viability was 94%.
`Nc1cccc(-c2cc3c(Oc4cccc(O)c4)ncnc3[nH]2)c1` gave a viability of 102%.
For `CS(=O)(=O)c1cccc(CNc2nc(Nc3ccc4c(c3)CCC(=O)N4)ncc2C(F)(F)F)c1`, the viability was 110%.
The viability of `CC[C@H](Nc1ncnc2[nH]cnc12)c1nc2cccc(F)c2c(=O)n1-c1ccccc1` is reported as 104%.
With `Cc1ccc(NC(=O)c2cccc(N(C)C)c2)cc1NC(=O)c1ccc(O)cc1` the viability was 105%.

Set 2 — observed: enzyme activity; action: inhibitor; tested at: 0.5 µM; reference: control
Compound: FC(F)(F)c1ccc(/C=C/c2nc(COc3ccc(CCCCn4ccnn4)cc3)co2)cc1
Cyclin-dependent kinase 5, with p25 (CDK5, Homo sapiens, UniProt Q00535) — remaining activity: 106%.
MAPK9 (Homo sapiens, UniProt P45984) — remaining activity: 106%.
For Cyclin-dependent kinase 4, with cyclin D1 (CDK4, Homo sapiens, UniProt P11802): remaining activity read 96.8%.
Protein kinase C beta type, isoform beta-I (PRKCB, Homo sapiens, UniProt P05771) — remaining activity: 103%.
IKBKE (Homo sapiens, UniProt Q14164) — remaining activity: 94.8%.
The remaining activity was 112% (MAP3K3 (Homo sapiens, UniProt Q99759)).
The remaining activity was 101% (CAMKK2 (Homo sapiens, UniProt Q96RR4)).
For PRKCA (Homo sapiens, UniProt P17252): remaining activity read 111%.
STK11 (Homo sapiens, UniProt Q15831) — remaining activity: 104%.
Tyrosine-protein kinase Lyn, isoform B (LYN, Homo sapiens, UniProt P07948) — remaining activity: 104%.
The remaining activity was 103% (TGFBR2 (Homo sapiens, UniProt P37173)).
For OXSR1 (Homo sapiens, UniProt O95747): remaining activity read 99.7%.
For DAPK2 (Homo sapiens, UniProt Q9UIK4): remaining activity read 107%.
It gave 98.1% for remaining activity (cGMP-dependent protein kinase 1, isoform beta (PRKG1, Homo sapiens, UniProt Q13976)).
For GRK3 (Homo sapiens, UniProt P35626): remaining activity read 104%.
The remaining activity was 92.6% (STK10 (Homo sapiens, UniProt O94804)).
It gave 91.3% for remaining activity (DAPK1 (Homo sapiens, UniProt P53355)).
It gave 98.8% for remaining activity (TGFBR1 (Homo sapiens, UniProt P36897)).
The remaining activity was 103% (CHEK2 (Homo sapiens, UniProt O96017)).
It gave 109% for remaining activity (CAMK2D (Homo sapiens, UniProt Q13557)).
It gave 98.6% for remaining activity (IKBKB (Homo sapiens, UniProt O14920)).
It gave 101% for remaining activity (PRKACA (Homo sapiens, UniProt P17612)).
For STK39 (Homo sapiens, UniProt Q9UEW8): remaining activity read 88.3%.

Set 3 — technique: phase 2a trial; host: idiopathic pulmonary fibrosis patients
SMILES: CC(C)n1cnc(-c2ccc(F)cc2)c1-c1ncc(C(=O)Nc2ccc(N3CCN(C)CC3)cc2)[nH]1
The “patients with lower respiratory infection” was 0% (60 mg once daily, grade 3).
For 30 mg once daily, grade 4: “patients with lower respiratory infection” read 0%.
It gave 0% for “patients with lower respiratory infection” (60 mg once daily, grade 1).
It gave 0% for “patients with lower respiratory infection” (30 mg once daily, grade 5).

Set 4 — observed: cell-free assay; technique: competition with immobilised ligand; tested at: 1 µM
SMILES: CCCCN(CCCC)C(=O)CN1C[C@H](c2cc(OC)c3c(c2)OCO3)[C@@H](C(=O)O)[C@@H]1CC(C)(C)CCC
For EPHB4 (Homo sapiens, UniProt P54760): remaining binding read 100%.
It gave 100% for remaining binding (LYN (Homo sapiens, UniProt P07948)).
Cyclin-dependent kinase 4, with cyclin D1 (CDK4, Homo sapiens, UniProt P11802) — remaining binding: 70.3%.
It gave 61.2% for remaining binding (NTRK1 (Homo sapiens, UniProt P04629)).
For CLK1 (Homo sapiens, UniProt P49759): remaining binding read 96.1%.
The remaining binding was 38% (LRRK2 (Homo sapiens, UniProt Q5S007)).
The remaining binding was 100% (PIK3CA (Homo sapiens, UniProt P42336, C420R)).
For PNCK (Homo sapiens, UniProt Q6P2M8): remaining binding read 86.5%.
For CIT (Homo sapiens, UniProt O14578): remaining binding read 100%.
CDK9 (Homo sapiens, UniProt P50750) — remaining binding: 100%.
It gave 100% for remaining binding (Tyrosine-protein kinase JAK2, JH1 (JAK2, Homo sapiens, UniProt O60674)).
DCLK1 (Homo sapiens, UniProt O15075) — remaining binding: 80.2%.
CAMK1 (Homo sapiens, UniProt Q14012) — remaining binding: 100%.
It gave 100% for remaining binding (EPHB6 (Homo sapiens, UniProt O15197)).
For MAPK9 (Homo sapiens, UniProt P45984): remaining binding read 100%.
The remaining binding was 95.5% (DDR1 (Homo sapiens, UniProt Q08345)).
The remaining binding was 100% (Ribosomal protein S6 kinase alpha-4, N-terminal kinase domain (RPS6KA4, Homo sapiens, UniProt O75676)).

Mixed results
The remaining activity of `Ic1ccc(Nc2nc(NCCN3CCOCC3)nc(N3CCOCC3)n2)cc1` is reported as 1.13 and 1.11 and 1.1 and 1.09 and 1.22 (lysosomal β-galactosidase (human, wild type); healthy dermal fibroblasts; 1 µM, unit not given; reference: DMSO).
